Measurements gathered from unrelated publications.
Each line is one published result; not all experiments were run side by side.
Target: Rhodopsin kinase GRK7 (GRK7, Homo sapiens, UniProt Q8WTQ7)

CCN1CCN(Cc2ccc(C(=O)Nc3ccc(C)c(NCc4cnc5[nH]ccc5c4OC)c3)cc2C(F)(F)F)CC1  remaining binding (binding, competition with immobilised ligand; 1 µM): 98%
O=C=[N][Ru-4]123([n]4c5ccc(O)cc5c5c6c(c7cc(F)c[n+]1c7c54)C(=O)NC6=O)[S+]1CC[S+]2CC[S+]3CC1 (centres unmarked)  remaining activity (enzyme activity; 100 nM, human enzyme, added: 10 µM ATP; baseline: untreated): 46%
C=CC(=O)N1CCc2ccc(-n3c(=O)ccc4cnc5ccc(-c6cnn(C)c6)cc5c43)cc21  remaining binding (KINOMEscan; 1 µM; baseline: DMSO control): 92%
NC(=O)[C@@H](O)C[C@H]1CCc2sc3ncnc(O[C@H]4CC[C@H](N5CCOCC5)CC4)c3c21  inhibition (enzyme activity, inhibitor; 10 µM): 4%
Cc1c[nH]c2nccc(-c3ccc(C(=O)N[C@@H]4c5c(F)cc(C(F)F)cc5C[C@@H]4O)cn3)c12  remaining binding (binding, competition with immobilised ligand; 3 µM): 3.9%
COc1ccc(NC(=O)Nc2ccc3c(c2)C(=O)N(C(C)CO)CC(C)C(CN(C)Cc2ccc4c(c2)OCO4)O3)cc1 (centres unmarked)  remaining activity (kinase activity, KinaseProfiler; 0.03 µM, species human; baseline: control): 92%
CN1CCN(Cc2ccc(-c3ccc(CO[C@H]4CCC[C@@H]4NC(=O)c4cc(-c5cnn(C)c5)cnc4N)cc3)cc2)CC1  inhibition (enzyme activity, inhibitor; 0.1 µM): 4%
C=CC(=O)N1CCCC(n2c(=O)c3ncccc3n(Cc3ccc(Oc4ccccc4)cc3)c2=O)C1 (centres unmarked)  remaining binding (cell-free assay, competition with immobilised ligand; 1 µM): 100%
COc1c(OCCCN2CCOCC2)ccc2c1N=C(NC(=O)c1cnc(N)nc1)N1CCN=C21  remaining activity (kinase activity, inhibitor; 1 µM; baseline: untreated control): 109%
Cc1cccc(O[C@H]2CCC[C@@H](C(C)CNCc3ccncc3)C2)c1 (relative stereo)  inhibition (enzyme activity, inhibitor; 10 µM): -6%
C=CC(=O)N1Cc2nc(-c3cc(-c4cc(Cl)cnc4Cl)c(F)cc3F)n(-c3ccncn3)c2C1  inhibition (cell-free assay, inhibitor; 1 µM): 0.3%
Cc1cnc2nc1Nc1cccc(c1)COC/C=C/COCc1cc(ccc1OCCN1CCOCC1)N2  remaining binding (binding; 0.1 µM): 87%
CN1CC[C@@H](COc2cnc(C#N)cc2-c2ccn3nc(NC(=O)C4CC4)cc3c2)C1  inhibition (enzyme activity, inhibitor; 1 µM): 1%
COc1cc(Nc2nccc(-c3cnn4nc(OC)ccc34)n2)cc(C(F)(F)F)c1  remaining binding (binding, competition with immobilised ligand; 1 µM): 67%
